{"data": "Experimental data gathered from unrelated publications", "note": "Parts stem from different laboratories: compare values within a part only.", "sequence of UniProt Q9C0C9 (whole entry, looked up)": "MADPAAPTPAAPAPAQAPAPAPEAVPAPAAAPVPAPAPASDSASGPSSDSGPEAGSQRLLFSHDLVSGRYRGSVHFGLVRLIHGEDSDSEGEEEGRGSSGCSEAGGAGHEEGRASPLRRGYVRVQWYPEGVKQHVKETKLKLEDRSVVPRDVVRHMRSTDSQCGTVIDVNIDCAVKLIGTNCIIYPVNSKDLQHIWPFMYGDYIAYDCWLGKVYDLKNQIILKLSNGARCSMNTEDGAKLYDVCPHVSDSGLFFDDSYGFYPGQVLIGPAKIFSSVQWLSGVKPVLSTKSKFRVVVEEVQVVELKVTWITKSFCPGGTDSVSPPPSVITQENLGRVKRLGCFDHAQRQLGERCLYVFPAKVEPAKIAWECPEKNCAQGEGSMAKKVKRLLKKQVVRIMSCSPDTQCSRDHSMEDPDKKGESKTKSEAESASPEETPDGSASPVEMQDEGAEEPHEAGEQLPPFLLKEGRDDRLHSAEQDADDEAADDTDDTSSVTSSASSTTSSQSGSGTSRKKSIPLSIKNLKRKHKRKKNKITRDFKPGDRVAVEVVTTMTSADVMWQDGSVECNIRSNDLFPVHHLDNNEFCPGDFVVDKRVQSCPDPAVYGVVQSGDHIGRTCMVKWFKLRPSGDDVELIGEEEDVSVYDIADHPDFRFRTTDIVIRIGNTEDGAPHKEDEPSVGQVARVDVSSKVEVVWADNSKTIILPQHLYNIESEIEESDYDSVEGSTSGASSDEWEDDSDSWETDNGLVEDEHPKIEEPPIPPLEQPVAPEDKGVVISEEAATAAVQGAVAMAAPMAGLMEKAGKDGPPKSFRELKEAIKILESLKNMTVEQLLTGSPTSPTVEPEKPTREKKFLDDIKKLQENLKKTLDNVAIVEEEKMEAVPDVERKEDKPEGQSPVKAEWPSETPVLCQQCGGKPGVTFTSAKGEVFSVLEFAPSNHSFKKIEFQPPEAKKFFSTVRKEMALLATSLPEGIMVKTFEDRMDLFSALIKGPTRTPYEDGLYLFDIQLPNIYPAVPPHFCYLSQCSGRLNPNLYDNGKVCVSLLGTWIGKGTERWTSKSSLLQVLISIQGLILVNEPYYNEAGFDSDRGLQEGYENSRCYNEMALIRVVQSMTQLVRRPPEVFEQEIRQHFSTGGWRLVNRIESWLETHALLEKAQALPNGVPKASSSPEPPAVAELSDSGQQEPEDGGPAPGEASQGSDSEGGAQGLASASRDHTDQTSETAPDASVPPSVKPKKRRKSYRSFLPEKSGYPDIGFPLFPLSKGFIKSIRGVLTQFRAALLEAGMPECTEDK", "sequence of UniProt Q8N2K1 (whole entry, looked up)": "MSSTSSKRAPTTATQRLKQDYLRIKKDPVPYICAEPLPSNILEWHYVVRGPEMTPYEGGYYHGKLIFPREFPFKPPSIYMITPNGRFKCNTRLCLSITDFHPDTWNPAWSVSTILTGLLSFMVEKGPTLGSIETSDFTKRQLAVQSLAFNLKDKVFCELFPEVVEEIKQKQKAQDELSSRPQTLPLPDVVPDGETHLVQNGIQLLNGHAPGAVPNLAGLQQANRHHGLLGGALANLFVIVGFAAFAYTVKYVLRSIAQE", "sequence of UniProt P62253 (whole entry, looked up)": "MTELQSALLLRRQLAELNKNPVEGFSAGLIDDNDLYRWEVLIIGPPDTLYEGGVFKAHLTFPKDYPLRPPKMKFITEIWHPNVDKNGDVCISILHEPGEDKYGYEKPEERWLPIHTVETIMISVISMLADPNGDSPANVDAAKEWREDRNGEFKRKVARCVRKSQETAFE", "sequence of UniProt Q969T4 (whole entry, looked up)": "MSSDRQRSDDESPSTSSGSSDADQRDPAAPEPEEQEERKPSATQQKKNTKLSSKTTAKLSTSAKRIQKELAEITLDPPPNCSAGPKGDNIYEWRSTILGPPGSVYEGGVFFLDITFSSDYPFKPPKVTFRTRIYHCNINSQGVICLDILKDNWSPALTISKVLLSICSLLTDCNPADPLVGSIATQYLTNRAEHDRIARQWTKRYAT", "sequence of UniProt O00762 (whole entry, looked up)": "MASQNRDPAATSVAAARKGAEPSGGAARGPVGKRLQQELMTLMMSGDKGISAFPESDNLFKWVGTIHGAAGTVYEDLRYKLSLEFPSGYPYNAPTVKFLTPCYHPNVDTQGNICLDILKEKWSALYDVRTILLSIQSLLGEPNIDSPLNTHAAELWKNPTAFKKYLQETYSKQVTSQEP", "sequence of UniProt Q7Z7E8 (whole entry, looked up)": "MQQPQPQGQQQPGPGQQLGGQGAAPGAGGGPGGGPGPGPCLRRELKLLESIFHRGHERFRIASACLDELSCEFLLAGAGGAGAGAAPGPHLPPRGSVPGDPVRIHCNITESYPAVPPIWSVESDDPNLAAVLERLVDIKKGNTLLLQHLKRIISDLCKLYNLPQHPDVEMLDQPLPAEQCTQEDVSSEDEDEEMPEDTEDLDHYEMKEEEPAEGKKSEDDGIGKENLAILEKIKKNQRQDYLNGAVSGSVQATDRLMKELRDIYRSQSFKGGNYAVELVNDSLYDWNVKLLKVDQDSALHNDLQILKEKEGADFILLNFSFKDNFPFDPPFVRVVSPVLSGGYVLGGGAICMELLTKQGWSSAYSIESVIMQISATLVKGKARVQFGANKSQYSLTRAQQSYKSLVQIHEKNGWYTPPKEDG", "sequence of UniProt P51668 (whole entry, looked up)": "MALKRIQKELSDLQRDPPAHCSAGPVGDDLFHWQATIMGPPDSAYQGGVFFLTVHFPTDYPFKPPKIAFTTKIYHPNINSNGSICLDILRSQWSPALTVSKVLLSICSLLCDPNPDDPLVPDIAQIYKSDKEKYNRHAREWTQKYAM", "sequence of UniProt Q9Y385 (whole entry, looked up)": "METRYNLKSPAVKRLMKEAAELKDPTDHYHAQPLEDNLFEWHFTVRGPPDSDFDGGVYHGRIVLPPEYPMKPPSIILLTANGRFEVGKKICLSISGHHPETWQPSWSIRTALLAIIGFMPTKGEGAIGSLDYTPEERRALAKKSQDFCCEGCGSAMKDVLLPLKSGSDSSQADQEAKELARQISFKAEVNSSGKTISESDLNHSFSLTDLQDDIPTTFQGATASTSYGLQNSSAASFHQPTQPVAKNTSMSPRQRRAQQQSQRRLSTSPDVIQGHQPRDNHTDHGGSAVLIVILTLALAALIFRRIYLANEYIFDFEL"}
{"data": "Sample 1", "target": "Histone acetyltransferase KAT6A, both winged helices, GST fusion (KAT6A, Homo sapiens, UniProt Q92794, residues 1-181)", "technique": "protein binding microarray", "form": "double-stranded DNA, one strand shown", "matrix": "in vitro", "tested at": "not given", "setting": "8-mer, flanks averaged, mean of 2 arrays, mostly near background", "relative to": "not given", "reading": "higher = stronger binding", "Target sequence (chain)": "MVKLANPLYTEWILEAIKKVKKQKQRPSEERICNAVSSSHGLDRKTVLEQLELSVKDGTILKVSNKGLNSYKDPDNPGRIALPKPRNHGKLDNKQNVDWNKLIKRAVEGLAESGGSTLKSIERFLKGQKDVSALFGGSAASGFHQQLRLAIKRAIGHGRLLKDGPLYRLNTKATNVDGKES"}
{"Sequence": "AGAGTTGC", "E-score": 0.0171}
{"Sequence": "TACCTTGA", "E-score": 0.0264}
{"Sequence": "CGTAAAGC", "E-score": 0.116}
{"Sequence": "GATACGGC", "E-score": 0.318}
{"Sequence": "ATCTGGTA", "E-score": -0.122}
{"Sequence": "GCTGTTTA", "E-score": 0.0272}
{"Sequence": "AGAAGCGC", "E-score": 0.263}
{"Sequence": "AACACTGG", "E-score": -0.0726}
{"Sequence": "CTCCTCTA", "E-score": -0.201}
{"Sequence": "ATTATTCC", "E-score": 0.00039}
{"Sequence": "CAAGAAGG", "E-score": -0.107}
{"Sequence": "AAATCGAC", "E-score": 0.0419}
{"Sequence": "CCCAGAGA", "E-score": -0.17}
{"Sequence": "AATTGTGT", "E-score": -0.0771}
{"Sequence": "ACTGGCAG", "E-score": -0.0228}
{"Sequence": "AAAAGCAA", "E-score": -0.0177}
{"Sequence": "ACGGGGCT", "E-score": 0.0794}
{"Sequence": "AAGGCGAG", "E-score": -0.0242}
{"Sequence": "GATACCGA", "E-score": 0.115}
{"Sequence": "GGGGCATA", "E-score": -0.163}
{"Sequence": "GCCCAAGA", "E-score": -0.152}
{"Sequence": "CGTGCTGC", "E-score": 0.0264}
{"Sequence": "CACTTGCG", "E-score": 0.193}
{"Sequence": "CCCGACCG", "E-score": 0.173}
{"Sequence": "GGACCTCA", "E-score": -0.061}
{"data": "Sample 2", "target": "RNA binding protein fox-1 homolog 2, RRM domain, GST-SBP tag (RBFOX2, Homo sapiens, UniProt O43251-10, residues 100-194)", "technique": "RNA Bind-n-Seq", "form": "RNA", "matrix": "in vitro", "tested at": "365 nM", "setting": "natural RNA segment, single round, ends assumed", "relative to": "no-protein control", "reading": "higher = stronger binding", "shared flanks, not repeated": "GGGAGUUCUACAGUCCGACGAUC … UGGAAUUCUCGGGUGCCAA", "Residues (chain)": "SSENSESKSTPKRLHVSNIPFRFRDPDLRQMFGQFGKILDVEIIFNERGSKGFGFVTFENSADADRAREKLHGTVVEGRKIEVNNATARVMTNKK"}
{"Sequence": "GACAACUCCUAGAACAUGUGCACCCAUGCAUAUGAUGACAGAUGUCUGCUUUUAAUGCAGCUGUGGACUGAGGUGUGGCUCAGAGGACACUUGUUCACUAAGUGUAAGAC", "RBNS enrichment (R)": 0.562}
{"Sequence": "UGCUUAUACUGUGAUAUCUCAUCCUAGCUAAGCUCUAUAAUGCCCAAGACCCCAAACAGUACUUUUACUUUGUUUGUACAAAAACAAAGACAUAUAGCCAAUACAAAUCA", "RBNS enrichment (R)": 0.373}
{"Sequence": "AACCUUCCCUCUGUUCCAUGGUCUUUGUGAACCUGCUUAGAGGUAUAGUUUUGAUAACCACAGUUUUAAUUCUUUUAUCUGUGCAUAAUAAAGAUAUGUAUCAAUUAUUA", "RBNS enrichment (R)": 0.441}
{"Sequence": "UUUAGGCUUGAGUCCUCAAGCCUCUCCUUUUCGUCCAUAAUAAAAUGUUUAAGUUAUUAAGAUCCUUUUGACGGCUUCUCUCUGCUUCACACUCAUGCUGAUGGCUGAUC", "RBNS enrichment (R)": 0.328}
{"Sequence": "AAAUAAUAAUAGCCGACGUUUAUUGAGCACUUACUAUGUGCCCAACCCUGUUAUGCCUUUCUCAGGCUCAUGAUAAAUGUAUUAGUCUGUUCUCAUGCUGCUAUUAAAGA", "RBNS enrichment (R)": 0.46}
{"Sequence": "CAGAAACCCCUGAUAAACUGAUCAGAUCUCAUGAGACUUAUUCACUGUCACGAGAAUAGCACGGGAAAGACUGGCCCCCAUGAUUCAAUUACCUCCCCCUGGGUCUGUCC", "RBNS enrichment (R)": 0.756}
{"Sequence": "UUGGUUUCUGGCGCUUUCAGAGACGUCUGAGGUUCUUUGCACAGAGACUCCUCAGAUGUGGGAACUCUGGUUCUUUCCGUGCUGUGUUCUGGAGAGAUCUCACGUGGAUG", "RBNS enrichment (R)": 0.522}
{"Sequence": "UGUUUUGAAAAUCUCAAUUUUAAUCAGGGGUUUUAAAAGAAAAUUGAAAGCCUGAACCUCCAUUUUUCUUCUUGGCUCCAGUUUUGCUGGUCCUCUGGAGAACUCUUCGU", "RBNS enrichment (R)": 0.382}
{"Sequence": "GGGAGAAUGGGAGGCUUGGCCUUCUUUGUGAGGCAGUGUGAGCAGAAGCUGAUGCCAGCAUGUCACUGGUUUUGAAGGGAUGAGCCCAGACUUGAUGUUUUGGGAUUGUC", "RBNS enrichment (R)": 3.65}
{"Sequence": "GGGCUGGGCAUAUGUCGGCCUCUUGUGCCAAGGCCAGGCAAGCAGCUCCAGGUCCUGACCAGUUUGCACACACACUCUGGAGCUGUAUCUGGCGCUUUUUCUAUCGUCUC", "RBNS enrichment (R)": 1.29}
{"Sequence": "ACCACAAAACAAACUGACCCUCCUAUUUUUAACUUGGAUACCUGCUAUUCUGCCAAAAGACAUUUUCUAGAAUAGUUUUUAAUGGGUUACUGUCCUUACCCUUCAUCCAA", "RBNS enrichment (R)": 0.464}
{"Sequence": "UGUAAACCACAUAAUUUCUGUACAUCCCAAAGGAUGAGAAGUGUGACCUUCAAGAAAAUGGAAAUAUUUGUAAAUUCUUGGUAAUGCCUCCGUUGUAAUUAAUGAAACUA", "RBNS enrichment (R)": 0.529}
{"data": "Sample 3", "Sequence": "B1 (MID2 RING domain)", "technique": "yeast two-hybrid", "matrix": "yeast", "setting": "mostly zero background", "relative to": "not given", "reading": "higher = stronger interaction", "B1": "MID2 RING domain (UniProt Q9UJV3); chain KMETLESELTCPICLELFEDPLLLPCAHSLCFSCAHRILVSSCSSGESIEPITAFQCPTCRYVISLNHRGL"}
{"target": "UBE2C UBC core domain (UniProt O00762)", "lacZ reporter activity": 0}
{"target": "BIRC6 UBC core domain (UniProt Q9NR09)", "lacZ reporter activity": 0}
{"target": "UBE2D1 UBC core domain (UniProt P51668)", "lacZ reporter activity": 6140}
{"target": "UBE2E3 UBC core domain (UniProt Q969T4)", "lacZ reporter activity": 0}
{"target": "UBE2G1 UBC core domain (UniProt P62253)", "lacZ reporter activity": 0}
{"target": "UBE2Q1 UBC core domain (UniProt Q7Z7E8)", "lacZ reporter activity": 0}
{"target": "UBE2J2 UBC core domain (UniProt Q8N2K1)", "lacZ reporter activity": 0}
{"target": "UBE2J1 UBC core domain (UniProt Q9Y385)", "lacZ reporter activity": 0}
{"target": "UBE2O UBC core domain (UniProt Q9C0C9)", "lacZ reporter activity": 0}
{"data": "Sample 4", "target": "RING finger protein unkempt homolog, zinc fingers 1-6, GST-SBP tag (UNK, Homo sapiens, UniProt Q9C0B0, residues 30-357)", "technique": "RNA Bind-n-Seq", "form": "RNA", "matrix": "in vitro", "tested at": "not given", "setting": "RNA with constant flanks, human-mouse chimeric sites, ends assumed", "relative to": "input RNA pool", "reading": "higher = stronger binding", "shared flanks, not repeated": "GGGAGUUCUACAGUCCGACGAUC … CAACAGAGGAUUGAGCAUCA", "sequence of UniProt Q9C0B0 (30-357, looked up)": "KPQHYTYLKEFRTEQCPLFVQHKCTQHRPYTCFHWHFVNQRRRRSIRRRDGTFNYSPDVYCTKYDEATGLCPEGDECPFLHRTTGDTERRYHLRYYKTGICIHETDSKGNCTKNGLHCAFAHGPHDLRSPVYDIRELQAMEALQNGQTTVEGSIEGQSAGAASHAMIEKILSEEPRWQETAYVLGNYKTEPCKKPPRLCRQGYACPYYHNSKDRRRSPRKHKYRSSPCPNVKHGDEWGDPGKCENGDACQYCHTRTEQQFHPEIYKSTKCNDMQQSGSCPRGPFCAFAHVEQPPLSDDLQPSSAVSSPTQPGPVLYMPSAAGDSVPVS"}
{"Sequence": "UACAUUUUAUUGUUGAGGUUUGUAUUUAUAUAUUCUUGUAGUGUCUGCUUGCCUGUGACUUCUGGUAAAAUAAAAUAAGCCUUUGAAAAUAUUUUAGCAUGGUAUUUAACAUUUUCUAAA", "bound/input enrichment [ratio]": 2}
{"Sequence": "AAAUCGUGUGUGUCCAAUAUUGAAAGUGCUUUAUCUACACUCCAAUAUGUAAGCAGUAUAGUAGUUUCUUUAGAGAAUAGGUCAGCCAUUGUAAAGUACAAUGCAAGCUCAGUCACUCCA", "bound/input enrichment [ratio]": 41.2}
{"Sequence": "GGCCUGGGACCGUCCUGGGCUAGUACAAAUAGCGGCAGUGGAGGCUCAGAGGAAAGUUUUGUUAGUGGAGGCAGUGGUAGAGGCCGUCAUGUACGGUCCUUUACUCGUAAAAAUCCUUCU", "bound/input enrichment [ratio]": 0.192}
{"Sequence": "CACAGAGCAGCACCUACCUCCUCCUUCUUUCCACACCUGCAAACUCUUUUACUUGGGCUGAAUAUUUAGUGUAAUUACAUCUCAGCUUUGAGGGCUCCCUGUGGCAAUUCCCGGAUUAAA", "bound/input enrichment [ratio]": 1.04}
{"Sequence": "AAAGAACUACUGAGGCAAGGCAGCAAAUUUAGAAGAAAUGUAUCAACAAUAUUGAUAGAGUUAGGAUUCCAAAUUAAAAAGAAAACUAAGACAUUAUACAUCAACAAAGCCAAUGUGUGG", "bound/input enrichment [ratio]": 10.3}
{"Sequence": "CAGUCCCCGUGUCCCAGGGGACAAUGUUGUGAACAAAAACUCAAAGCGGCCCUUUCUUUGUAGUUCUUGAUUCUCGAAAUGUGCUAUUAUUGUUUGUCUUUUUUUUUUUUUUUUUAAAGA", "bound/input enrichment [ratio]": 1.78}
{"Sequence": "AGAGAUAAAGCAUCUAGAAAUAUGAGAGGCUCCCGGAUGAAUGGGUUGCCUAGCCCCACUCACAGCGCCCACUGUAGCUUCUACCGAACCAGAACCUUGCAGGCACUGAGUAAUGAGAAG", "bound/input enrichment [ratio]": 0.705}
{"Sequence": "CCAAUCGUGGAGCAGUACUUGAAGACAAAGAAAAAUUCUAGUCAUUUAAUCAUCAAGUACAUUAGCUGCCGCCUGCUGACACUCAUCAUUAUACUGUUAGCGUGUAUCUACCUGGGCUAU", "bound/input enrichment [ratio]": 0.467}
{"Sequence": "AAUAGAGGAUCCACCUCCCAAAGUGCUGGGAGUAAAGGUGUGGCCACCACACCUAACUUGAUGGAUAUAUAUUUUUUUUAAUAUGAAUCUUCCUGUUCGUCCAGGGAGCAAGAACGGGUU", "bound/input enrichment [ratio]": 1.34}
{"Sequence": "UAAAUUAGGGCUGCCGUUUUCUGUUUCGCCCUGAGCUGCGGAAAGCCAGGCGGUUUUAUCUAGCUUAUACAAGGCUGCUGGUGUUCCCUCUUUUUUUCCACGAGGGUGUUUUUGGCUGCA", "bound/input enrichment [ratio]": 1.59}
{"Sequence": "UCAUUUUUCUCUUUUCUGAUCGUCAGGUAGGAAAAGCCUAAAGAUUAGGUUGUAAGAAAAACAGAAGCCAUGUUUCGAAGACCUGUGUUACAGGUACUUCGUCAGUUUGUAAGACAUGAG", "bound/input enrichment [ratio]": 1.48}
{"note": "Repeated from above (sample 1):"}
{"Sequence": "AAAAGCAA", "E-score": -0.0177}
{"Sequence": "ACGGGGCT", "E-score": 0.0794}
{"Sequence": "AAGGCGAG", "E-score": -0.0242}
{"Sequence": "GATACCGA", "E-score": 0.115}
{"Sequence": "GGGGCATA", "E-score": -0.163}
{"Sequence": "GCCCAAGA", "E-score": -0.152}
{"Sequence": "CGTGCTGC", "E-score": 0.0264}
{"Sequence": "CACTTGCG", "E-score": 0.193}
